{"data": "Results gathered from unrelated publications", "note": "Compare with care: the assays were run in different laboratories. pIC50: −log10 of the molar value.", "UniProt P04062, sequence (whole entry, unmodified, looked up)": "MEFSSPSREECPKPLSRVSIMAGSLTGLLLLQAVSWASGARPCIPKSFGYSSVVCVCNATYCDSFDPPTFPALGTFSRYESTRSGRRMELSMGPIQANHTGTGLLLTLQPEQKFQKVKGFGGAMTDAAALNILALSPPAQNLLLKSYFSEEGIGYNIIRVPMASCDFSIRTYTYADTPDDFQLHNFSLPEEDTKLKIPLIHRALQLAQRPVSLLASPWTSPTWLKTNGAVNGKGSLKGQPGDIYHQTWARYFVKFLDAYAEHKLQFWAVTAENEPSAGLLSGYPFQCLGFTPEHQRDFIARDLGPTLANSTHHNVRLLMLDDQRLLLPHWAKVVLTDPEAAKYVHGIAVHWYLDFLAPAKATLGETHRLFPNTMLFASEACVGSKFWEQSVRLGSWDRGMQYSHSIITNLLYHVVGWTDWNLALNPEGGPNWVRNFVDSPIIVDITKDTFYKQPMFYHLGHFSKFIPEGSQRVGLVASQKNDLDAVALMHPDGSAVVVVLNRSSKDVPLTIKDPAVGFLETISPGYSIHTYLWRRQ"}
{"Structure (SMILES)": "OC[C@H]1[C@@H](O)[C@H](O)[C@@H](O)CN1CCCCCOCc1ccsc1", "target or system": "GBA1 (Homo sapiens, UniProt P04062, R534H)", "assay": "inhibitor, 4MU-β-D-glucopyranoside", "setting": "together with: 4MU-β-D-glucopyranoside", "measurement": "pIC50", "value": 3.48}
{"Structure (SMILES)": "CNS(=O)(=O)Nc1nccc(Cc2c(C)c3ccc(Oc4ncccc4F)cc3oc2=O)c1F", "target or system": "HARA", "assay": "cell viability, CellTiter-Glo", "setting": "7 days", "measurement": "pIC50", "value": "< 6.00"}
{"Structure (SMILES)": "Br.CCCCCCCCCn1c2c(c(=N)c3c1CCC3)CCCC2", "target or system": "Trypanosoma cruzi", "assay": "reporter mRNA translation, inhibitor, measured: capped polyadenylated Renilla luciferase mRNA", "test system": "cell-free extract", "setting": "concentration not given", "how to read": "reference: control RNA", "measurement": "relative translation", "value": "32.5%"}
{"Structure (SMILES)": "COC1CN([C@H]2CC[C@H]([C@@]3(C)Oc4c(Cl)cc(C(=O)NCc5c(SC)cc(C)[nH]c5=O)c(C)c4O3)CC2)C1", "assay": "RNA-seq, measured: DNASE2 mouse homolog", "test system": "mouse, HT-1376 xenograft, whole blood", "setting": "dose not given", "how to read": "reference: vehicle", "measurement": "log2 fold change", "value": 0.0942}
{"Structure (SMILES)": "CC(C)c1ccc(N(C)c2ccc3c(c2)OCC[C@H]3CNc2cnccc2C(=O)O)cc1", "target or system": "TF-1", "assay": "cell growth or viability, ATP luminescence", "setting": "7 days", "measurement": "pIC50", "value": 8.59}
{"Structure (SMILES)": "CN1CCc2c(sc3c2c(=O)n(-c2ccccc2)c2nnc(SCc4ccccc4)n32)C1", "target or system": "Trypanosoma cruzi", "assay": "reporter mRNA translation, inhibitor, measured: capped polyadenylated Renilla luciferase mRNA", "test system": "cell-free extract", "setting": "concentration not given", "how to read": "reference: control RNA", "measurement": "relative translation", "value": "103%"}
{"Structure (SMILES)": "Cc1ncsc1-c1ccc(C(C)NC(=O)C2CC(O)CN2C(=O)C(NC(=O)CCCCCCCCCCN2CCCC(Nc3ncc(Cl)c(Nc4ccccc4S(=O)(=O)C(C)C)n3)C2)C(C)(C)C)cc1 (stereo not drawn)", "target or system": "22Rv1", "assay": "RNA-seq, measured: ZKSCAN2 mRNA", "setting": "concentration not given", "how to read": "reference: DMSO", "measurement": "log2 fold change", "value": -1.5}
{"Structure (SMILES)": "Nc1ncc(-c2cc(-c3cnn(CC(F)(F)F)c3)ncc2F)nc1C(=O)NC1CNCC(F)C1 (stereo not drawn)", "target or system": "GRK7", "assay": "KINOMEscan", "setting": "1 µM", "how to read": "reference: DMSO control", "measurement": "remaining binding", "value": "64%"}
{"Structure (SMILES)": "C=C(NC(=O)c1csc(-c2nc3c(cc2O)-c2nc(cs2)C(=O)NC(C(C)O)C(=O)NC(=C(C)OC)c2nc(cs2)C(=O)NC2c4nc(cs4)C(=O)NC(COC(=O)c4c5c6c(cccc6n4O)COC(=O)C(OC4CC(C)(O)C(N(C)C)C(C)O4)C2OC5)c2nc-3cs2)n1)C(N)=O (stereo not drawn)", "target or system": "Staphylococcus epidermidis", "test system": "methicillin-resistant, 10 isolates", "setting": "serum 75%", "measurement": "MIC50", "value": "0.0625 µg/mL"}
{"Structure (SMILES)": "C=CC(=O)Nc1cccc(Cn2ncc3cnc(Nc4cnn(CCOC)c4)nc32)c1", "target or system": "FRK human", "assay": "binding, KINOMEscan", "setting": "100 nM", "how to read": "lower = stronger binding", "measurement": "percent of control", "value": "52%"}
{"Structure (SMILES)": "O=Cc1cc(C(F)(F)F)ccc1B(O)O", "assay": "reaction with N-acetyl-lysine, HPLC-MS", "setting": "pH 10.2, together with: N-α-acetyl-lysine", "measurement": "pseudo-first-order rate constant", "value": "0 h⁻¹"}
{"Structure (SMILES)": "CN1CCCNC(=O)c2cccc(c2)C(=O)NCCCN(C)CCCNc2cccc3c2C(=O)c2cccc(c2C3=O)NCCC1", "target or system": "SAS", "assay": "RNA-Seq, measured: FARP2 mRNA", "setting": "1 µM, 6 h", "how to read": "reference: untreated cells", "measurement": "log2 fold change", "value": -0.82}
{"note": "Some of these lines once more:"}
{"Structure (SMILES)": "CN1CCCNC(=O)c2cccc(c2)C(=O)NCCCN(C)CCCNc2cccc3c2C(=O)c2cccc(c2C3=O)NCCC1", "target or system": "SAS", "assay": "RNA-Seq, measured: FARP2 mRNA", "setting": "1 µM, 6 h", "how to read": "reference: untreated cells", "measurement": "log2 fold change", "value": -0.82}
